# Experimental data gathered from unrelated publications.
# Compare with care: the assays were run in different laboratories. ± marks the error that the study gave.
# CNR2: Cannabinoid receptor 2 (CNR2, Homo sapiens, UniProt P34972)
# Sequence of UniProt P34972 (whole entry, unmodified, looked up): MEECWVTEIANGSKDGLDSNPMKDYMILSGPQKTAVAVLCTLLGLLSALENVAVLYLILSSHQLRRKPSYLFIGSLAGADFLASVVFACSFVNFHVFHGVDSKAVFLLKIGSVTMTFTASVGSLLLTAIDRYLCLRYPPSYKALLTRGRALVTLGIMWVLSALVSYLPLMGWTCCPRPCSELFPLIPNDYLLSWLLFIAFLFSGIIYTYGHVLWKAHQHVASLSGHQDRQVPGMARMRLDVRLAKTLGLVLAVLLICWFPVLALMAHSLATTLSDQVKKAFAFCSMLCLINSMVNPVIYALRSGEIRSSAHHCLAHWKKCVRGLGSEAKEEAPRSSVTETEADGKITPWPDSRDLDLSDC
SMILES,target,test,system,conditions,endpoint,value
CCCCCCC[C@@H](C/C=C/CCC(=O)N(C)C/C(=C/Cl)C/C(=C\C(=O)N1CC(O)CC1=O)OC)OC (some centres unmarked),CNR2,"cAMP, agonist",,,EC50,8800 nM
C[C@H](/C=C\C/C=C\C/C=C\CCCC(=O)N[C@H](C)CO)/C=C\CCCCCO,CNR2,"ligand displacement, radioligand",,cell membranes,Ki,55.2 nM
"CC(C)(CCCCCCN=C=S)c1cc(O)c2c(c1)OC(C)(C)C1CCC(CO)CC21 (single isomer, unassigned; (-))",CNR2,"binding, radioligand displacement",,"apparent Ki, added: [3H]-CP55940",Ki,1.51 nM
CCC(=C(c1ccc(OCCN2CCCC2)cc1)c1ccc(OCCN2CCCC2)cc1)c1ccccc1,CNR2,"adenylyl cyclase activity, inverse agonist",CHO expressing human CB2,added: forskolin 10 µM,IC50,134 ± 397 nM
CCCCCn1cc(C(=O)C2C(C)(C)C2(C)C)c2ccccc21,CNR2,,,,IC50,83.6 ± 22 nM
CN1CCCCC1Cn1cc(C(=O)c2ccccc2I)c2ccccc21 (centres unmarked),CNR2,"ligand displacement, radioligand",,,Ki,9.2 nM
COc1ccc(C(=O)c2c(C)n(CCN3CCOCC3)c3cc(I)ccc23)cc1,CNR2,,,,IC50,12.3 ± 2.47 nM
C[C@@]1(Cc2ccccc2)COc2cc(C(=O)N3CCCCC3)ccc21,CNR2,"GTPγS binding, agonist",,cell membranes,EC50,108 nM
CCCCC/C=C\C/C=C\C/C=C\C/C=C\CCCC(=O)OC(CO)CO,"CNR2 (Homo sapiens, UniProt P34972, Q63R)","β-arrestin 2 recruitment, agonist, BRET",HEK293 coexpressing GRK4,,EC50,2140 nM
CC(C)[C@H](N=C(NS(=O)(=O)c1ccc(Cl)cc1)N1C[C@H](c2ccccc2)C(c2ccc(Cl)cc2)=N1)C(N)=O,CNR2,,,,IC50,162 ± 17 nM
CC1(C)Oc2cc([C@]34CC5CC(C[C@@](N=[N+]=[N-])(C5)C3)C4)cc(O)c2[C@@H]2C[C@H](O)CC[C@H]21,CNR2,"cAMP inhibition, agonist",HEK293 expressing hCB2,added: forskolin,EC50,> 3000 nM
